Measurements pooled from the literature.

For `COc1ccc(-c2c(-c3ccc(C#N)c(F)c3)nc(N3CCC(N)CC3)n(C)c2=O)cc1F`, “patients with TRAE any grade” read 4% (item: decreased appetite; human patients; oral, dose not given, dose escalation).
`CN(C)C(=O)c1cc2cnc(Nc3ccc(N4CCNCC4)cn3)nc2n1C1CCCC1`: “patients with adverse event” 1.2% (item: Leukopenia, AESI; human, HR+/HER2− advanced breast cancer; oral, dose not given, grade 4, CTCAE v4.03).
For `N[C@@H]1c2ccccc2OC12CCN(c1cnc3c(N4CCCc5ncccc54)n[nH]c3n1)CC2`, “patients with treatment-emergent adverse event” read 20% (item: Anemia; human advanced or metastatic solid tumours; oral, 60 mg once daily, phase Ia pooled cohort).
`C=CC(=O)Nc1cc(Nc2nccc(Nc3cc(Cl)c(F)cc3C(C)(C)O)n2)c(OC)cc1N1CC[C@@H](N(C)C)C1`: “patients with hypokalaemia” 35% (human patients; oral, 400 mg, treatment-emergent adverse events).
`C[C@@H]1OC(=O)NN=C1c1ccc(-c2ccc(F)cc2)c(C(F)(F)F)c1`: “patients with adverse event” 0% (phase I trial, item: Ascites all grades; human patients; 5 mg once daily).
For `Cn1cncc1-c1c(F)cncc1NC(=O)c1c(N)nn2cc(F)cnc12`, “patients grade ≥3 Lymphocyte count decrease” read 24% (human patients; oral, dose not given, all doses).
`Cc1cn([C@H]2O[C@@H](CO[P@@](=O)(N[C@@H](C)C(=O)OC(C)C)Oc3ccccc3)[C@H](O)[C@H]2F)c(=O)[nH]c1=O`: “patients with TEAE” 0% (item: external ear pain; human; 10 mg).
Under “patients with dysgeusia”, `COc1ncnn2ccc(-c3cnc4nc(C)n(Cc5nnc([C@@H](C)F)o5)c4c3)c12` is recorded as 0% (human; oral, dose not given, grade 4).
`C[C@]1(O)C[C@@](N)(c2ccc(-c3nc4n(c3-c3ccccc3)COc3ccncc3-4)cc2)C1` — result for “patients with decreased appetite TEAE”: 22.2% (human, advanced or metastatic solid tumours; dose not given, once-daily dose escalation total).
`O=C1Nc2cc3[nH]nc(-c4ccncc4)c3cc2CN1Cc1ccccc1` — result for “patients with nausea”: 100% (CTCAE v4.03; human, relapsed or refractory advanced solid tumours; intravenous, 1.8 mg/kg, pooled schedules).

Repeated from above:
For `Cn1cncc1-c1c(F)cncc1NC(=O)c1c(N)nn2cc(F)cnc12`, “patients grade ≥3 Lymphocyte count decrease” read 24% (human patients; oral, dose not given, all doses).
